Assay results of several laboratories.
Lines come from different studies, so protocols differ. “And” joins repeats or separate records; there may be more than shown. ± gives the spread as reported.
NNMT: Nicotinamide N-methyltransferase (NNMT, Homo sapiens, UniProt P40261)
UniProt P40261, sequence (whole entry, looked up): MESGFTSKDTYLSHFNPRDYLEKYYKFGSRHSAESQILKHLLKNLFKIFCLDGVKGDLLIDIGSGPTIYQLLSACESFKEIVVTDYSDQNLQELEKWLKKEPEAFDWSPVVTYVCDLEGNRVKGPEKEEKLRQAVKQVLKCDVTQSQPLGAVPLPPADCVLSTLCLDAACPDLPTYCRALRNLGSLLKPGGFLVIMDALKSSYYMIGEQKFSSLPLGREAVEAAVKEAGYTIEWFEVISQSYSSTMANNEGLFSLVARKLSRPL
Gria1: Glutamate receptor 1 (Gria1, Rattus norvegicus, UniProt P19490)
NTSR1: Neurotensin receptor type 1 (NTSR1, Homo sapiens, UniProt P30989)
UniProt P30989, sequence (whole entry, looked up): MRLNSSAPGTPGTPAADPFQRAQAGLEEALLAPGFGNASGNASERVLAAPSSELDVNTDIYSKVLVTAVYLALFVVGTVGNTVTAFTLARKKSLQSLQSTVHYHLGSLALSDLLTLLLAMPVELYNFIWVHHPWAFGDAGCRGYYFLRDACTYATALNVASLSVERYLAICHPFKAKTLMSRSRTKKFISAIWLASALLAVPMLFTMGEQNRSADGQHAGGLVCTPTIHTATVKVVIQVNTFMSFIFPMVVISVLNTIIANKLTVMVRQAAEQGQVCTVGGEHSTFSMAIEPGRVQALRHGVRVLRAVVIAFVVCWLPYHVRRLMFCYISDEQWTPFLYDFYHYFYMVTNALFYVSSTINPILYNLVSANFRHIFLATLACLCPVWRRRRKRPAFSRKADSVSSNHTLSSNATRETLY
ADRB2: Beta-2 adrenergic receptor (ADRB2, Homo sapiens, UniProt P07550)
UniProt P07550, sequence (whole entry, looked up): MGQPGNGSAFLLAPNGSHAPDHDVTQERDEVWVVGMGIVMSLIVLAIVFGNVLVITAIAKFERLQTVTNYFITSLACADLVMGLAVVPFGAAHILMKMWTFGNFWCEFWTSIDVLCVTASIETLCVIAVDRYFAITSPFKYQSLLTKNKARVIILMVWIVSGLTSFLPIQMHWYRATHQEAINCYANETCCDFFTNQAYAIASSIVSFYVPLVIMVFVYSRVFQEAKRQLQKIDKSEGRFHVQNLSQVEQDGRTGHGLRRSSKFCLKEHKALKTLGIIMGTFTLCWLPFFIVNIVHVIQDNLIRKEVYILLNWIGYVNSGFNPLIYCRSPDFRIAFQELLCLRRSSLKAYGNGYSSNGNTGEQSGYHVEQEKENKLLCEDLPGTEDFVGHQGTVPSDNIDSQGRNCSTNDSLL
DNA dC->dU-editing enzyme APOBEC-3B: DNA dC->dU-editing enzyme APOBEC-3B (Homo sapiens, UniProt Q9UH17)
UniProt Q9UH17, sequence (whole entry, looked up): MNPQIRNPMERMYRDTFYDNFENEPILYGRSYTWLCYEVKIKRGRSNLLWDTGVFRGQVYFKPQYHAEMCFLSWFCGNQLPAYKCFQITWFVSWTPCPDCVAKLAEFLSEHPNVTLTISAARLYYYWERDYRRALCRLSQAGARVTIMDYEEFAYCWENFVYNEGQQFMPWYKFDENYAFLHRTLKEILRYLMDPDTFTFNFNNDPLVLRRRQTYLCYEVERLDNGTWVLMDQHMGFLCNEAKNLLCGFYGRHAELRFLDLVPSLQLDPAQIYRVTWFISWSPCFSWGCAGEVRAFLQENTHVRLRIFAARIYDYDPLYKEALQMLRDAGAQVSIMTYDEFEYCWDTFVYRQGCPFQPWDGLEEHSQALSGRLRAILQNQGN
Uncharacterized protein: Uncharacterized protein (Trypanosoma brucei brucei, UniProt Q386Q8)
CYP2C19: Cytochrome P450 2C19 (CYP2C19, Homo sapiens, UniProt P33261)
UniProt P33261, sequence (whole entry, looked up): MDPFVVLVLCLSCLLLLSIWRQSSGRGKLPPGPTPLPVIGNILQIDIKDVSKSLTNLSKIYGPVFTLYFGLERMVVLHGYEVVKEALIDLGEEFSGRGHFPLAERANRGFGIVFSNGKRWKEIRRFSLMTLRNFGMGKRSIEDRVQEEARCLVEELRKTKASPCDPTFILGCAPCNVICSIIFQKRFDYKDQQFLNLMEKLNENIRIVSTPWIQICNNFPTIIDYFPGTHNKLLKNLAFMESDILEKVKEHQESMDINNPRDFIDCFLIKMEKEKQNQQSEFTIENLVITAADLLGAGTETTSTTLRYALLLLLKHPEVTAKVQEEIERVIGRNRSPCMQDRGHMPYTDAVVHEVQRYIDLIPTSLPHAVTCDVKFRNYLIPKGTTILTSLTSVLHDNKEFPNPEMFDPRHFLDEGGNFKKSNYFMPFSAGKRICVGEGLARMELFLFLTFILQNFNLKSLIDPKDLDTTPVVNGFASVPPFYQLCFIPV
MAOB: Amine oxidase [flavin-containing] B (MAOB, Homo sapiens, UniProt P27338)
UniProt P27338, sequence (whole entry, looked up): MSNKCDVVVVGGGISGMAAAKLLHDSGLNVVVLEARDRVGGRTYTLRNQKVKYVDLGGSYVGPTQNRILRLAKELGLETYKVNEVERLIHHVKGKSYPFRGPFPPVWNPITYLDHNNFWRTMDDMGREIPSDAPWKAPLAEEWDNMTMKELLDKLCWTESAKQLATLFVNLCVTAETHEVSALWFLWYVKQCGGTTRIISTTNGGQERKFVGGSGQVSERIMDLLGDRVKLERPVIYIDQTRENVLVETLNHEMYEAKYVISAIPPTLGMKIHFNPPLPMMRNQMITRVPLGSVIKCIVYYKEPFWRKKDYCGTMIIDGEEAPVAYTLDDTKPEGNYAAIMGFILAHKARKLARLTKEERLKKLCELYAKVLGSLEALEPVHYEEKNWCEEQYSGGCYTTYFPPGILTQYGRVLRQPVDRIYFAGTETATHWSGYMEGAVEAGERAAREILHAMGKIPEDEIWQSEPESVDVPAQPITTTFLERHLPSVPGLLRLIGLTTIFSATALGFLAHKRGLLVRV
ppa: Inorganic pyrophosphatase (ppa, Escherichia coli, UniProt P0A7A9)
UniProt P0A7A9, sequence (whole entry, looked up): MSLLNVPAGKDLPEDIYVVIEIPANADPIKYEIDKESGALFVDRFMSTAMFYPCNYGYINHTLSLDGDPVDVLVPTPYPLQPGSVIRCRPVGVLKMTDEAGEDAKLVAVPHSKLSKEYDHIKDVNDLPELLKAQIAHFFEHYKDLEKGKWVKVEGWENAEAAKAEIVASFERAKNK
DNA dC->dU-editing enzyme APOBEC-3B C-terminal domain: DNA dC->dU-editing enzyme APOBEC-3B, C-terminal domain (Homo sapiens, UniProt Q9UH17)
JAK1: Tyrosine-protein kinase JAK1 (JAK1, Homo sapiens, UniProt P23458)
PIK3CD: Phosphatidylinositol 4,5-bisphosphate 3-kinase catalytic subunit delta isoform (PIK3CD, Homo sapiens, UniProt O00329)
UniProt O00329, sequence (whole entry, looked up): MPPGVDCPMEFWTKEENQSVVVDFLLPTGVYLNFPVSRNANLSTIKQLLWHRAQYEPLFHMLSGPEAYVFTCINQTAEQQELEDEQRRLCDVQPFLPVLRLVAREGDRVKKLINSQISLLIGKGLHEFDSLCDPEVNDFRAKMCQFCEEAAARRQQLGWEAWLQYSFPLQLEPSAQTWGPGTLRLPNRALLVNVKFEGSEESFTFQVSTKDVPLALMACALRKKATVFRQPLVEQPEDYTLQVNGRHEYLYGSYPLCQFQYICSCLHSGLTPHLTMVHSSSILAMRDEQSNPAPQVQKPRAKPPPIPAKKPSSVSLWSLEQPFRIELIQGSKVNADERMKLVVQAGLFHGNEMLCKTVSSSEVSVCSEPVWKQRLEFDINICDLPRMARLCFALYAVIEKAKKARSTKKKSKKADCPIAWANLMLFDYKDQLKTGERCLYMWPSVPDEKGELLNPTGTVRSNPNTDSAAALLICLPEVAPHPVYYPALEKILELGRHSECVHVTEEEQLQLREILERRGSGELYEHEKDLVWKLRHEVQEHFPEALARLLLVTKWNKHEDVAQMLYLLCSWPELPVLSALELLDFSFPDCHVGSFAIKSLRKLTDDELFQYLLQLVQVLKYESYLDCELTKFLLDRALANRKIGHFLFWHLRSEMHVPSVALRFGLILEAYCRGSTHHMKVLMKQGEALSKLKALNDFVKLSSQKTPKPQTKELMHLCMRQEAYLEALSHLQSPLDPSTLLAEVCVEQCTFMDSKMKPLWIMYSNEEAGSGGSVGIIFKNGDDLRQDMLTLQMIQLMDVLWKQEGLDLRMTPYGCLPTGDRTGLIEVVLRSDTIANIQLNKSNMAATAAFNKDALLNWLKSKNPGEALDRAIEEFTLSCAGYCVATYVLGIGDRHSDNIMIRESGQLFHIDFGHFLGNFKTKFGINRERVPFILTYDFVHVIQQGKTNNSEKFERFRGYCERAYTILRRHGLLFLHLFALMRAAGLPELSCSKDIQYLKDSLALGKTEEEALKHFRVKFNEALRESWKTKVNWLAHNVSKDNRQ
SLC7A5: Large neutral amino acids transporter small subunit 1 (SLC7A5, Homo sapiens, UniProt Q01650)
UniProt Q01650, sequence (whole entry, looked up): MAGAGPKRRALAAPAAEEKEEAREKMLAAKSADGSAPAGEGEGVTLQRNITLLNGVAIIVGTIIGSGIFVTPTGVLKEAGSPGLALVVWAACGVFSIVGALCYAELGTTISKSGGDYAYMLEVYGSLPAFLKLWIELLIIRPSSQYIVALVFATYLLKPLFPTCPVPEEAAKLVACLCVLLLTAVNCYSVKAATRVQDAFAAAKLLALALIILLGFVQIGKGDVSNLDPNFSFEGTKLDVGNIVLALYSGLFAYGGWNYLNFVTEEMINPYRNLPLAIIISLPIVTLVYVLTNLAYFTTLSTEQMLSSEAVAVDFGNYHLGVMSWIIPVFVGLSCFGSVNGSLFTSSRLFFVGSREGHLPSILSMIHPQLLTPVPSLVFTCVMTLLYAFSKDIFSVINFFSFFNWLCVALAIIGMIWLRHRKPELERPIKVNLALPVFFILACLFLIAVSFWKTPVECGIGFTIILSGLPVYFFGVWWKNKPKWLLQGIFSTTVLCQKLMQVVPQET
glpG: Rhomboid protease GlpG (glpG, Escherichia coli, UniProt P09391)
TDP1: Tyrosyl-DNA phosphodiesterase 1 (TDP1, Homo sapiens, UniProt Q9NUW8)
UniProt P22310, sequence (whole entry, looked up): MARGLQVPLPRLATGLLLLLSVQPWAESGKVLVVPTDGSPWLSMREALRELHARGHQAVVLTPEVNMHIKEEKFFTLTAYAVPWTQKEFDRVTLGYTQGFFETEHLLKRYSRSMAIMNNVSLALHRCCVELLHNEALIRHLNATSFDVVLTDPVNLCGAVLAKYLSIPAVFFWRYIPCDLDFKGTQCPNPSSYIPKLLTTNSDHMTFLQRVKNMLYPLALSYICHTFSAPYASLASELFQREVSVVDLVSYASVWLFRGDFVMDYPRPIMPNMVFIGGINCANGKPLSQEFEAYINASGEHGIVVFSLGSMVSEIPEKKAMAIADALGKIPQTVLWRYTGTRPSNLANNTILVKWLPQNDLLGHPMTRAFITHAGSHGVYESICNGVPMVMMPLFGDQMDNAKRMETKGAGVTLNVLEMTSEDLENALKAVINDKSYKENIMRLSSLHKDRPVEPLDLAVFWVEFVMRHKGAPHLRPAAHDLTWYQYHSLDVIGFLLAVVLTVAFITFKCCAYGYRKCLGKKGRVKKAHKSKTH
UniProt Q13951, sequence (whole entry, looked up): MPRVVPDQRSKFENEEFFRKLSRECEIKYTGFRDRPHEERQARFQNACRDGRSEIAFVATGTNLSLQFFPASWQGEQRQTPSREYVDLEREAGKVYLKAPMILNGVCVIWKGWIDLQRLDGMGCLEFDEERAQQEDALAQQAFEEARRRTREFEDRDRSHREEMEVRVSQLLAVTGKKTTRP

| Compound | target | assay | system | conditions | measurement | value |
| --- | --- | --- | --- | --- | --- | --- |
| COc1ccc(C(N)=O)cn1 | NNMT | enzyme activity, inhibitor |  |  | IC50 | 2.51 µM |
| O=C(CCNC(=O)CNC(=O)CC(c1ccccc1)(c1ccccc1)c1ccccc1)NC[C@@H]1CCCN(Cc2ccc(F)cc2)C1 | CHRM3 (Homo sapiens, UniProt P20309) | ligand displacement, radioligand |  | cell membranes | IC50 | 0.3 µM |
| O=C(O)Cc1cc2c(cc1C(=O)c1cccc(Cl)c1)OCO2 | Gria1 | glutamate-evoked current, inhibitor, whole-cell patch clamp | HEK293T, homomeric receptor |  | IC50 | 4.27 µM |
| COc1ccccc1C1CCN(c2nc(C3(F)CCC3)nc3c(Cl)cc(N(C)CCO)cc23)CC1 | NTSR1 | G protein activation, antagonist, BRET |  |  | IC50 | 1.91 µM |
| c1ccc2c(NC3CCCCC3)nc(NC3CCCCC3)nc2c1 | ADRB2 | cAMP production, antagonist, GloSensor |  | added: isoproterenol 1 µM | IC50 | > 50 µM |
| COc1cc2c(cc1NS(=O)(=O)c1ccc(Br)cc1C)n(C)c(=O)n2C | Bromodomain-containing protein 1, bromodomain (BRD1, Homo sapiens, UniProt O95696) | inhibitor |  |  | IC50 | 0.892 µM |
| COc1ccccc1C1CCN(c2nc(C3CCCC3)nc3ccc(N(C)CCO)cc23)CC1 | NTSR1 | G protein activation, antagonist, BRET |  |  | IC50 | 10.2 µM |
| O=C(O)Cc1cc2c(cc1C(=O)c1cccc(Br)c1)OCO2 | Gria1 | glutamate-evoked current, inhibitor, whole-cell patch clamp | HEK293T, homomeric receptor |  | IC50 | 4.57 µM |
| O=C(O)c1cc(-c2ccc(CN3CCCC(CO)C3)o2)ccc1Cl (stereo not shown) | DNA dC->dU-editing enzyme APOBEC-3B | enzyme activity, inhibitor, HPLC |  |  | IC50 | 70.1 µM |
| Clc1ccccc1C1=Nn2c(nnc2C2CCCCC2)SC1 | Uncharacterized protein | inhibitor, coupled colorimetric | Trypanosoma brucei |  | IC50 | 566 µM |
| O=C1C(O)=C(O)C(=O)C(O)=C1O | Protein tyrosine phosphatase type IVA 3, with CNNM4 CBS domain (PTP4A3, Homo sapiens, UniProt O75365) | protein-protein interaction, inhibitor, HTRF |  |  | IC50 | 2.4 µM |
| Cc1[nH]nc2c1N=C(c1ccccc1Cl)c1cnc(N3CCOCC3)cc1N2 | CYP2C19 | enzyme activity, inhibitor | human, liver microsomes |  | IC50 | > 10 µM |
| CC(C)c1ccc(/C=C/C(=O)c2ccc(Br)s2)cc1 | MAOB | enzyme activity, inhibitor |  |  | IC50 | 0.074 µM |
| COc1ccc(C(N)=O)c[n+]1C | NNMT | enzyme activity in cells, inhibitor |  |  | IC50 | > 31.6 µM |
| CN(C)c1nc(NCc2ccccc2)c(/N=N/c2ccc(Cl)cc2)c(N(C)C)n1 | Chitinase (OfChi-h, Ostrinia furnacalis, UniProt Q4AE59) | enzyme activity, inhibitor, fluorescence |  |  | IC50 | 0.1 µM |
| COc1ccc2c(c1OC)C(=O)N(c1cccc(NC(C)=O)c1)C2 | ppa | enzyme activity, inhibitor |  |  | IC50 | > 100 µM |
| c1ccc(Nc2nc(NC3CCCCC3)c3ccccc3n2)cc1 | ADRB2 | cAMP production, antagonist, GloSensor |  | added: isoproterenol 1 µM | IC50 | > 50 µM |
| CCC1(CO)CCCN(C(=O)c2ccc(CSC)o2)C1 (stereo not shown) | DNA dC->dU-editing enzyme APOBEC-3B C-terminal domain | deaminase activity, inhibitor, UDG-coupled deamination |  |  | IC50 | 563 ± 20 µM |
| Cc1nn(-c2cccc(N)c2)c(=O)c2cnc(Nc3ccc(N4CCNCC4)cc3)nc12 | JAK1 | enzyme activity, inhibitor |  |  | IC50 | > 10 µM |
| O=C1/C(=N\c2ccc(Cl)cc2Br)c2ccccc2N1Cc1cccc(Cl)c1 (mixture of isomers) | PIK3CD | enzyme activity, inhibitor, ADP detection |  |  | IC50 | 0.0414 µM |
| O=P(O)(O)C(Nc1ccc(Cc2ccccc2)cc1)P(=O)(O)O | polyphosphate kinase 2 (Cytophaga hutchinsonii, UniProt A0A6N4SMB5) | enzyme activity, inhibitor, HPLC |  | 30 min, 37 °C, added: 0.04 mM ADP and 0.3 mM polyP | IC50 | 60.2 ± 0.065 µM |
| N[C@@H](Cc1c[nH]c2ccc(OCc3cccc(-c4ccoc4)c3)cc12)C(=O)O | SLC7A5 | transporter uptake, inhibitor, radiometric |  |  | IC50 | 40.1 µM |
| N=C(N)SCc1ccccc1CSC(=N)N | CYP2C19 | enzyme activity, inhibitor |  |  | IC50 | > 10 µM |
| O=C(NC1CCC(F)(F)CC1)C(c1cncnc1)N(C(=O)C(F)Cl)c1ccc(OC(F)(F)F)cc1 (stereo not shown) | CYP2C19 | enzyme activity, inhibitor |  | 10 (unit not given) | IC50 | 40.4 µM |
| COc1ccc(C(=O)CC2(O)C(=O)Nc3cc(Cl)cc(Cl)c32)c(OC)c1 (stereo not shown) | Uncharacterized protein | inhibitor, coupled colorimetric | Trypanosoma brucei |  | IC50 | > 100 µM |
| Oc1ccc(C#Cc2c(O)ccc3c2C(c2ccc(O)cc2)(c2ccc(O)cc2)c2cc(O)ccc2-3)cc1 | PDE4D (Homo sapiens, UniProt Q08499) | enzyme activity, inhibitor |  |  | IC50 | 0.203 µM |
| CCc1ccc(/N=C2\C(=O)N(Cc3ccc([N+](=O)[O-])cc3)c3ccccc32)cc1 | PIK3CD | enzyme activity, inhibitor, ADP detection |  |  | IC50 | 0.0596 µM |
| Cc1cc(O)c2c(c1O)C(=O)c1cc(O)cc(O)c1C2=O | MAOB | enzyme activity, inhibitor |  |  | IC50 | ~9 µM and 9.69 µM |

| Compound | target | assay | system | conditions | measurement | value |
| --- | --- | --- | --- | --- | --- | --- |
| Clc1cccc(Nc2nc(NC3CCCCC3)c3ccccc3n2)c1 | ADRB2 | β-arrestin recruitment, antagonist |  |  | IC50 | 6 µM |
| O=c1c(-c2cnn(-c3ccc(Cl)cc3)c2)c(C(F)(F)F)oc2c(O)c(O)ccc12 | Cullin-4A (CUL4A, Homo sapiens, UniProt Q13619) | enzyme activity, inhibitor, fluorescence |  |  | IC50 | 9.3 µM |
| C[N+](C)(CCCN1c2ccccc2CCc2ccc(Cl)cc21)Cc1ccc2ccccc2c1 | Uncharacterized protein | enzyme activity, inhibitor, coupled colorimetric |  | added: E. coli pyrophosphatase coupling | IC50 | 40.6 µM |
| Cc1cc(NC2CCN(C)CC2)ccc1-c1cc2c(N3CCC[C@H](C(=O)NCc4ccc(OC(F)(F)F)cc4)C3)ncnc2[nH]1 | JAK1 | enzyme activity, inhibitor, mobility shift |  |  | IC50 | > 8 µM |
| CCN(CC)CC(=O)Nc1cccc(-n2cc(-c3ccc4ccc(-c5cn(-c6cccc(NC(=O)CN(CC)CC)c6)nn5)cc4c3)nn2)c1 | CAMK2D (Homo sapiens, UniProt Q13557) | enzyme activity, inhibitor |  |  | IC50 | > 10 µM |
| Cc1nc(N(C)c2ccc3c(c2)/C(=C/c2ccccc2)C(=O)N3C)c2ccccc2n1 | PIK3CD | enzyme activity, inhibitor, ADP detection |  |  | IC50 | 0.547 µM |
| N#CSc1sc(N)nc1-c1ccccc1 | ppa | inhibitor, counter-screen, coupling enzyme alone |  |  | IC50 | 17.5 µM |
| Fc1cccc(Nc2nc(NC3CCCCC3)c3ccccc3n2)c1 | ADRB2 | cAMP production, antagonist, GloSensor |  | added: isoproterenol 1 µM | IC50 | > 50 µM |
| CCC1(O)CCCN(C(=O)c2ccc(-c3ccc(F)c(C(N)=O)c3)cc2)C1 (stereo not shown) | DNA dC->dU-editing enzyme APOBEC-3B | enzyme activity, inhibitor, HPLC |  |  | IC50 | 693 µM |
| O=C1CC(c2ccccc2)N1S(=O)(=O)c1ccc(-c2ccc(Cl)cc2)cc1 (stereo not shown) | glpG | substrate cleavage, inhibitor | NR698 |  | IC50 | 7.3 µM |
| CCC(NC(=O)c1cccc(-c2ccc(C)nc2N)c1)c1ccnn1C (stereo not shown) | DNA dC->dU-editing enzyme APOBEC-3B C-terminal domain | deaminase activity, inhibitor, UDG-coupled deamination |  |  | IC50 | 754 ± 34 µM |
| CCCC(=O)OC1CCC2(C)C(CCC3(C)C2CC=C2C4C(C)C(C)CCC4(C(=O)O)CCC23C)C1(C)C (stereo not shown) | UGT1A4 (Homo sapiens, UniProt P22310) | enzyme activity, inhibitor | human, liver microsomes |  | IC50 | 1.36 µM and 1.22 µM |
| O=C1CC(c2ccc(Br)cc2)N1S(=O)(=O)c1cccc(Cl)c1 (stereo not shown) | glpG | enzyme activity, inhibitor |  |  | IC50 | ≥ 100 µM |
| Fc1ccc(Nc2nc(NC3CCCCC3)c3cc(Cl)ccc3n2)cc1F | ADRB2 | cAMP production, antagonist, GloSensor |  | added: isoproterenol 1 µM | IC50 | > 50 µM |
| N[C@@H](Cc1c[nH]c2ccc(OCc3ccc(-c4ccsc4)cc3)cc12)C(=O)O | SLC7A5 | transporter uptake, inhibitor, radiometric |  |  | IC50 | 18.6 µM |
| Fc1ccc2[nH]c(-c3ccccn3)nc2c1 | Core-binding factor subunit beta, with RUNX1 Runt domain (Homo sapiens, UniProt Q13951) | Runt domain binding, inhibitor, FRET |  |  | IC50 | ≥ 34 µM |
| CC(C)(C=NOCc1ccc2nc(-c3ccccc3)c(Nc3ccc(C(=O)O)cc3)n2c1)Sc1ccccc1 (mixture of isomers) | TDP1 | enzyme activity, inhibitor |  | 100 µM, unpurified compound | inhibition | 11.2% |
| COC(=O)C1=CNC(C)=C(C(=O)OC)C1c1ccc(F)c(C(F)(F)F)c1 (stereo not shown) | CACNA1C (Homo sapiens, UniProt Q13936) | ion current, inhibitor, patch clamp |  | pH 7.4 | IC50 | 4.8 µM |
| COc1ccc(OC)c(C2=Nn3c(nnc3C3CCCCC3)SC2)c1 | ppa | enzyme activity, inhibitor |  |  | IC50 | 550 µM |
| C[n+]1cc(C(N)=O)ccc1N | NNMT | enzyme activity in cells, inhibitor |  |  | IC50 | 15.8 µM |
| O=C(O)c1ccc(Nc2c(-c3ccc(CON=Cc4cc(Br)c5c(c4)CCO5)cc3)nc3cc(-c4ccccc4)ccn23)cc1 | TDP1 | enzyme activity, inhibitor |  | 100 µM, unpurified compound | inhibition | 66.7% |
| COc1cc(CF)c(C(N)=O)cn1 | NNMT | enzyme activity, inhibitor |  |  | IC50 | 1.58 µM |
| c1ccc(C2=Nn3c(nnc3C3CCCCC3)SC2)cc1 | ppa | enzyme activity, inhibitor |  |  | IC50 | > 100 µM |
| N[C@@H](Cc1c[nH]c2ccc(OCc3cccc(-c4ccccc4)c3)cc12)C(=O)O | SLC7A5 | transporter uptake, inhibitor, radiometric |  |  | IC50 | 23.9 µM |
| COC(=O)Cc1cc2c(cc1C(=O)c1ccccc1Br)OCO2 | Gria1 | ion current, patch clamp |  |  | IC50 | 5.51 µM |
| c1csc(C2=Nn3c(nnc3C3CCCCC3)SC2)c1 | Uncharacterized protein | inhibitor, coupled colorimetric | Trypanosoma brucei |  | IC50 | 197 µM |
| COc1ccccc1C1CCN(c2nc(C3(F)CC3)nc3c(Cl)cc(N(C)CCO)cc23)CC1 | NTSR1 | G protein activation, antagonist, BRET |  |  | IC50 | 1.87 µM |
